{"data": "Published values pooled from the literature", "PTPN3": "Tyrosine-protein phosphatase non-receptor type 3 (PTPN3, Homo sapiens, UniProt P26045)", "OPRL1": "Nociceptin receptor (OPRL1, Homo sapiens, UniProt P41146)", "note": "Each line is one published result; not all experiments were run side by side. Numbers after ± are the reported error."}
{"SMILES": "CC(=O)N[C@@H](Cc1c[nH]cn1)C(=O)N[C@@H](CC(=O)O)C(=O)NCC(=O)N[C@@H](CC(C)C)C(=O)N[C@@H](Cc1cc(=O)oc2cc(OP(=O)(O)O)ccc12)C(=O)N[C@@H](CCC(N)=O)C(=O)NCC(=O)N[C@@H](CC(C)C)C(=O)N[C@@H](CO)C(=O)N[C@H](C(=O)N[C@@H](C)C(=O)N[C@H](C(=O)N[C@@H](CCCCN)C(=O)N[C@@H](CC(=O)O)C(=O)N[C@H](C(=O)N[C@@H](Cc1ccc(OP(=O)(O)O)cc1)C(=O)N[C@@H](CC(=O)O)C(=O)N[C@@H](C)C(=O)N[C@@H](CC(C)C)C(=O)N[C@@H](Cc1c[nH]cn1)C(N)=O)[C@@H](C)O)[C@@H](C)O)[C@@H](C)O", "target": "PTPN3", "assay": "substrate", "conditions": "pH 6, TCR zeta-chain ITAM peptide", "measurement": "kcat/Km", "value": "22800 M⁻¹ s⁻¹"}
{"SMILES": "O=C(NCc1ccc(F)cc1)C1C(=O)N(O)C(=O)c2cc(C(F)(F)F)ccc21 (stereo not drawn)", "target": "Nucleoprotein, exonuclease domain (N, Lymphocytic choriomeningitis virus, UniProt P09992)", "assay": "exonuclease activity, inhibitor", "conditions": "20 µM, 30 min", "measurement": "inhibition", "value": "73%"}
{"SMILES": "CN1C(=O)CCc2cc(C(=O)NCC=CS(C)(=O)=O)ccc21", "target": "Polyprotein P1234, nsP2 protease (Chikungunya virus, UniProt Q5XXP4)", "assay": "time-dependent inhibition", "measurement": "kinact", "value": "0.0024 ± 0.0003 s⁻¹"}
{"SMILES": "CN(C)Cc1ccc(OC(=O)N(C)C)c(Cl)c1", "target": "ache (Electrophorus electricus, UniProt O42275)", "assay": "enzyme activity, inhibitor, Ellman", "conditions": "35.4 µM, with: acetylthiocholine iodide", "measurement": "Vmax", "value": "0.039 absorbance units/min"}
{"SMILES": "O=c1cc(-c2cc(O)c(O)c(S(=O)(=O)O)c2)oc2cc(O)c(S(=O)(=O)O)c(O)c12", "target": "Spike glycoprotein, RBD with ACE2 (Severe acute respiratory syndrome coronavirus 2, UniProt P0DTC2)", "assay": "spike RAB binding, ratiometric fluorescence imaging", "system": "SARS-CoV-2", "conditions": "20 µM", "measurement": "inhibition", "value": "72%"}
{"SMILES": "CCCCN1CC(=O)N[C@@H](Cc2c[nH]c3ccccc23)C(=O)N[C@H]2CSSC[C@H](N)C(=O)N[C@H]3CSSC[C@H](NC(=O)[C@H](CCCNC(=N)N)NC(=O)[C@H](CO)NC(=O)[C@H](Cc4c[nH]cn4)NC(=O)[C@H](CC(=O)O)NC(=O)[C@H](CCCNC(=N)N)NC2=O)C(=O)N[C@H](C(N)=O)CSSC[C@H](NC(=O)[C@H](CC(N)=O)NC3=O)C(=O)N[C@@H](CO)C(=O)N[C@@H](CO)C1=O", "target": "Scn2a (Rattus norvegicus, UniProt P04775)", "assay": "sodium current, blocker, two-electrode voltage clamp", "system": "Xenopus oocytes", "conditions": "10 µM", "measurement": "kobs", "value": "0.36 ± 0.07 min⁻¹"}
{"SMILES": "Cc1ccc(S(=O)(=O)Nc2cccc(C(=O)NC3CCN(c4ncnc5[nH]cnc45)CC3)c2)cc1", "target": "Replicase polyprotein 1ab, nsp14 ExoN with nsp10 (rep, Severe acute respiratory syndrome coronavirus 2, UniProt P0DTD1)", "assay": "ExoN activity", "conditions": "200 µM", "measurement": "inhibition", "value": "17.6%"}
{"SMILES": "CC(C)[C@H](N)C(=O)NCC(=O)N[C@@H](CCC(=O)O)C(=O)N[C@@H](CCCNC(=N)N)C(=O)N[C@H]1C[Se][Se]C[C@@H]2NC(=O)[C@H](Cc3c[nH]c4ccccc34)NC(=O)[C@H](CCCNC(=N)N)NC(=O)CNC(=O)[C@H](C)NC(=O)CNC(=O)[C@H](CCCNC(=N)N)NC(=O)[C@H](CCCCN)NC(=O)CNC(=O)[C@H](CC(N)=O)NC(=O)[C@H](CCCCN)NC(=O)[C@H](CSSC[C@@H](C(=O)N[C@@H](C)C(N)=O)NC(=O)[C@H](CCCNC(=N)N)NC(=O)[C@H](CO)NC(=O)[C@H](Cc3c[nH]cn3)NC(=O)[C@H](CC(=O)O)NC(=O)[C@H](CCCNC(=N)N)NC2=O)NC1=O", "target": "Scn3a (Rattus norvegicus, UniProt P08104)", "assay": "sodium current, two-electrode voltage clamp", "scale": "baseline: analogue over wild-type µ-conotoxin BuIIIB", "measurement": "Kd ratio", "value": 2.1}
{"SMILES": "CCN(CC)Cc1cc(N)ccc1O", "target": "Acetylcholinesterase, VR-inhibited (ACHE, Homo sapiens, UniProt P22303)", "assay": "enzyme reactivation, reactivator", "system": "VR", "conditions": "concentration not given", "measurement": "reactivation rate kr", "value": "4.01 ± 2.37 min⁻¹"}
{"SMILES": "O=C(/C=C/c1ccc(O)cc1)/C(C(=O)Nc1ccccc1)=C(O)/C=C/c1ccc(O)cc1", "target": "Lethal factor (Bacillus anthracis, UniProt P15917)", "assay": "enzyme activity", "conditions": "20 µM, with: substrate 3 µM", "measurement": "inhibition", "value": "26 to 28%"}
{"SMILES": "CC(C(=O)O)c1nn(C)c2nc(N)[nH]c(=O)c2c1=O (stereo not drawn)", "target": "Dihydropteroate synthase (Bacillus anthracis, UniProt Q81VW8)", "assay": "competitor, fluorescence tracer displacement", "conditions": "concentration not given", "measurement": "tracer binding", "value": "inhibited"}
{"SMILES": "CC1=C[C@@H](CN2CCN(c3ncccn3)CC2)[C@H](C(C)C)C[C@H]1Cc1nnc(Cc2c[nH]c3ccccc23)o1", "target": "Replicase polyprotein 1ab, nsp4-nsp5-nsp6 precursor (rep, Severe acute respiratory syndrome coronavirus 2, UniProt P0DTD1)", "assay": "reporter gene, cell-based secondary screen", "measurement": "luciferase signal", "value": "14 ± 1.7%"}
{"SMILES": "CC(=O)N[C@@H](Cc1c[nH]cn1)C(=O)N[C@H](C(=O)NCC(=O)N[C@@H](Cc1ccccc1)C(=O)N[C@@H](CC(C)C)C(=O)N[C@H](C(=O)N[C@@H](CCC(=O)O)C(=O)N[C@@H](Cc1cc(=O)oc2cc(OP(=O)(O)O)ccc12)C(=O)N[C@H](C(=O)N[C@@H](C)C(=O)N[C@H](C(=O)N[C@@H](CCCNC(=N)N)C(=O)N[C@@H](Cc1c[nH]c2ccccc12)C(N)=O)[C@@H](C)O)C(C)C)[C@@H](C)OP(=O)(O)O)[C@@H](C)O", "target": "Dual specificity protein phosphatase 10 (Homo sapiens, UniProt Q9Y6W6)", "assay": "substrate", "conditions": "pH 6, ERK1/2 activation-loop peptide", "measurement": "kcat/Km", "value": "9190 M⁻¹ s⁻¹"}
{"SMILES": "N[C@@H](Cc1ccc(OP(=O)(O)O)cc1)C(=O)O", "target": "Secreted effector protein (Yersinia pestis, UniProt O68720, C403A/D356A)", "assay": "surface plasmon resonance", "conditions": "immobilized protein", "measurement": "ΔG", "value": "-2.73 kcal/mol"}
{"SMILES": "O=C1Cc2ccccc2N1C1CCN([C@@H]2CC[C@H]3CCCc4cccc2c43)CC1", "target": "OPRL1", "assay": "G protein activation, GTPγS binding", "system": "CHO membranes", "scale": "baseline: compound over N/OFQ EC50", "measurement": "concentration ratio", "value": 48}
{"SMILES": "CC(=O)N[C@@H](Cc1c[nH]cn1)C(=O)N[C@@H](CC(=O)O)C(=O)NCC(=O)N[C@@H](CC(C)C)C(=O)N[C@@H](Cc1ccc(O)cc1)C(=O)N[C@@H](CCC(N)=O)C(=O)NCC(=O)N[C@@H](CC(C)C)C(=O)N[C@@H](CO)C(=O)N[C@H](C(=O)N[C@@H](C)C(=O)N[C@H](C(=O)N[C@@H](CCCCN)C(=O)N[C@@H](CC(=O)O)C(=O)N[C@H](C(=O)N[C@@H](Cc1cc(=O)oc2cc(OP(=O)(O)O)ccc12)C(=O)N[C@@H](CC(=O)O)C(=O)N[C@@H](C)C(=O)N[C@@H](CC(C)C)C(=O)N[C@@H](Cc1c[nH]cn1)C(N)=O)[C@@H](C)O)[C@@H](C)O)[C@@H](C)O", "target": "PTPN3", "assay": "substrate", "conditions": "pH 6, TCR zeta-chain ITAM peptide", "measurement": "kcat/Km", "value": "57700 M⁻¹ s⁻¹"}
{"SMILES": "CC[C@H](C)[C@@H]1NC(=O)[C@H](CCCNC(=N)N)NC(=O)[C@@H](N)CSSC[C@@H]2NC(=O)[C@@H]3CSSC[C@@H](C(=O)N[C@H](C(=O)O)C(C)C)NC(=O)[C@H](CCCCN)NC(=O)[C@H](CC(N)=O)NC(=O)[C@H](Cc4ccccc4)NC(=O)[C@H](CCCNC(=N)N)NC(=O)[C@H](CC(N)=O)NC(=O)[C@H](CSSC[C@H](NC(=O)[C@H](CCCCN)NC(=O)[C@H](CCC(N)=O)NC(=O)[C@H](CC(N)=O)NC(=O)[C@@H]4C[C@@H](O)CN4C1=O)C(=O)N[C@@H](Cc1ccccc1)C(=O)N[C@@H](CCC(N)=O)C(=O)N[C@@H](Cc1c[nH]cn1)C(=O)N[C@@H](CC(C)C)C(=O)N[C@@H](CC(=O)O)C(=O)N[C@@H](CC(=O)O)C(=O)N3)NC(=O)[C@H](CCCCN)NC(=O)[C@H](CCCNC(=N)N)NC(=O)[C@H](CO)NC2=O", "target": "Sh (Drosophila melanogaster, UniProt P08510, del6-46)", "assay": "potassium current, patch clamp, pooled data", "conditions": "zero voltage", "measurement": "koff", "value": "13 ± 2 s⁻¹"}
{"SMILES": "CNC(=O)CC1C(=O)N(C2CCN([C@H]3CC[C@@H](C(C)C)CC3)CC2)c2ccccc21 (stereo partly drawn)", "target": "OPRL1", "assay": "β-arrestin recruitment, BRET", "system": "HEK293", "conditions": "concentration not given, unit not given, with: β-arrestin 2", "scale": "baseline: N/OFQ maximal effect", "measurement": "intrinsic activity", "value": "0.77 ± 0.07"}
{"SMILES": "COC(=O)CN1CN(c2ccccc2)C2(CCN(Cc3cccc4ccccc34)CC2)C1=O", "target": "OPRL1", "assay": "GIRK channel activation", "system": "AtT20 expressing OPRL1", "scale": "baseline: N/OFQ", "measurement": "potency loss", "value": "~40 fold"}
{"SMILES": "CC(C)[C@H]1CC[C@@H](N2CCC3(CC2)C(=O)NCN3c2ccccc2)CC1", "target": "OPRL1", "assay": "calcium mobilization", "system": "CHO with Gαqi5", "conditions": "concentration not given, unit not given", "scale": "baseline: compound over N/OFQ Emax", "measurement": "intrinsic activity", "value": 0.99}
{"SMILES": "C[C@@H]1NC(=O)[C@H](CCCNC(=N)N)NC(=O)[C@H](CO)NC(=O)[C@H](Cc2c[nH]cn2)NC(=O)[C@H](CC(=O)O)NC(=O)[C@H](CCCNC(=N)N)NC(=O)[C@@H]2CSSC[C@H](N)C(=O)N[C@@H](C)C(=O)N[C@@H](CC(N)=O)C(=O)N[C@@H](CSSC[C@@H](C(N)=O)NC1=O)C(=O)N[C@@H](CO)C(=O)N[C@@H](CO)C(=O)N[C@@H](CCCCN)C(=O)N[C@@H](Cc1c[nH]c3ccccc13)C(=O)N2", "target": "Scn4a (Rattus norvegicus, UniProt P15390)", "assay": "sodium current, blocker, two-electrode voltage clamp", "system": "Xenopus oocytes", "conditions": "1 µM, 20 min, steady state", "measurement": "block", "value": "71 ± 4%"}
{"note": "For quick reference, copied from above:"}
{"SMILES": "CC[C@H](C)[C@@H]1NC(=O)[C@H](CCCNC(=N)N)NC(=O)[C@@H](N)CSSC[C@@H]2NC(=O)[C@@H]3CSSC[C@@H](C(=O)N[C@H](C(=O)O)C(C)C)NC(=O)[C@H](CCCCN)NC(=O)[C@H](CC(N)=O)NC(=O)[C@H](Cc4ccccc4)NC(=O)[C@H](CCCNC(=N)N)NC(=O)[C@H](CC(N)=O)NC(=O)[C@H](CSSC[C@H](NC(=O)[C@H](CCCCN)NC(=O)[C@H](CCC(N)=O)NC(=O)[C@H](CC(N)=O)NC(=O)[C@@H]4C[C@@H](O)CN4C1=O)C(=O)N[C@@H](Cc1ccccc1)C(=O)N[C@@H](CCC(N)=O)C(=O)N[C@@H](Cc1c[nH]cn1)C(=O)N[C@@H](CC(C)C)C(=O)N[C@@H](CC(=O)O)C(=O)N[C@@H](CC(=O)O)C(=O)N3)NC(=O)[C@H](CCCCN)NC(=O)[C@H](CCCNC(=N)N)NC(=O)[C@H](CO)NC2=O", "target": "Sh (Drosophila melanogaster, UniProt P08510, del6-46)", "assay": "potassium current, patch clamp, pooled data", "conditions": "zero voltage", "measurement": "koff", "value": "13 ± 2 s⁻¹"}
{"SMILES": "CNC(=O)CC1C(=O)N(C2CCN([C@H]3CC[C@@H](C(C)C)CC3)CC2)c2ccccc21 (stereo partly drawn)", "target": "OPRL1", "assay": "β-arrestin recruitment, BRET", "system": "HEK293", "conditions": "concentration not given, unit not given, with: β-arrestin 2", "scale": "baseline: N/OFQ maximal effect", "measurement": "intrinsic activity", "value": "0.77 ± 0.07"}
{"SMILES": "COC(=O)CN1CN(c2ccccc2)C2(CCN(Cc3cccc4ccccc34)CC2)C1=O", "target": "OPRL1", "assay": "GIRK channel activation", "system": "AtT20 expressing OPRL1", "scale": "baseline: N/OFQ", "measurement": "potency loss", "value": "~40 fold"}
